Results collected from several papers.
± gives the spread as reported.

O=c1ccn([C@@H]2O[C@H](CO)[C@@H](O)[C@H](O)[C@H]2I)c(=O)[nH]1  IC50 (Japanese encephalitis virus; viral replication, inhibitor, ELISA; Vero): > 20 µM
CC[C@@]1(O)C[C@H](O[C@H]2C[C@H](N(C)C)[C@H](O[C@H]3C[C@H](O)[C@H](O[C@H]4CCC(=O)[C@H](C)O4)[C@H](C)O3)[C@H](C)O2)c2c(cc3c(c2O)C(=O)c2c(O)cccc2C3=O)[C@H]1C(=O)OC  IC50 (SARS-CoV-2 NLuc reporter; viral replication; Calu-3; 16 h compound pretreatment): 0.173 µM
C[C@]12C=CC(=O)C=C1CC[C@@H]1[C@@H]2[C@@H](O)C[C@@]2(C)[C@H]1C[C@H]1OC(CCCCCCCCCN=[N+]=[N-])O[C@]12C(=O)CO (stereo partly shown)  IC50 (Severe acute respiratory syndrome coronavirus 2; viral replication; VeroE6/TMPRSS2): 6.6 µM
COC(=O)CCCC1C2CCCN3CCCC(CN1Cc1ccc(Cl)c(Cl)c1)C23 (stereo not shown)  IC50 (Ebola virus; viral entry; EBOV GP pseudotyped HIV): 5.29 µM
COc1cccc2c1C(=O)c1c(O)c3c(c(O)c1C2=O)C[C@@](O)(C(=O)CO)C[C@@H]3O[C@H]1C[C@H](N)[C@H](O)[C@H](C)O1  IC50 (SARS-CoV-2 NLuc reporter; viral replication; Calu-3; 16 h compound pretreatment): 0.04 µM
N=C(N)NCCC[C@H](NC(=O)[C@@H](N)CO)C(=O)N[C@@H](Cc1ccc(O)cc1)C(=O)N[C@@H](Cc1ccc(O)cc1)C(=O)N1CCC[C@H]1C(=O)N[C@@H](Cc1ccccc1)C(=O)N[C@@H](Cc1ccccc1)C(=O)NCC(=O)N[C@@H](CC(=O)O)C(=O)N[C@@H](CO)C(=O)O  IC50 (Ebola virus; pseudovirus infection; pseudotyped virus): 52.6 µM
COC(=O)c1ncn(CCOP(=O)(O)O)c1C(=O)OC  IC50 (Mammarenavirus lassaense; viral replication, inhibitor; Vero; 48 h): 25 µg/mL
C[C@@H]1CCCN1CCc1cc2cc(-c3ccc(C#N)cc3)ccc2o1  IC50 (Naegleria fowleri; alamarBlue; ATCC 30215; 48 h, trophozoites): 3.05 ± 0.2 µM
O=C(O)CCCC1C2CCCN3CCCC(CN1Cc1ccc(Cl)c(Cl)c1)C23 (stereo not shown)  IC50 (Ebola virus; viral entry; EBOV GP pseudotyped HIV): 78.6 µM
CCCc1ccc(-c2cccc(-c3nc4ccc5cc(C(=O)O)cc(O)c5c4[nH]3)c2)cc1  IC50 (Mycobacterium tuberculosis; resazurin; rel knockout; 168 h, nutrient-starved): 64 µM
COc1cc(-c2oc3cc(O)cc(O)c3c(=O)c2O[C@@H]2O[C@H](CO)[C@@H](O)[C@H](OC(C)=O)[C@H]2O)ccc1O  IC50 (influenza A virus; hemagglutination; A/Tern/South Africa/1/61 (H5N3)): 40.8 ± 0.5 µM
O=[N+]([O-])c1ccc(-n2nc(-c3ccc(F)cc3)cc2-c2ccc(F)cc2)c([N+](=O)[O-])c1  IC50 (Japanese encephalitis virus; plaque formation; N2a; 72 h): < 1 µM
CCCCCCCCCCCCC1O[C@@H]2C[C@H]3[C@@H]4CCC5=CC(=O)C=C[C@]5(C)[C@H]4[C@@H](O)C[C@]3(C)[C@]2(C(=O)CO)O1 (stereo partly shown)  IC50 (Severe acute respiratory syndrome coronavirus 2; viral replication, inhibitor; VeroE6/TMPRSS2; 24 h): 6.1 µM
CC(C)[C@H](NC(=O)[C@H](Cc1ccccc1)NC(=O)[C@H](Cc1ccccc1)NC(=O)[C@H](CC(=O)O)NC(=O)[C@H](CC(=O)O)NC(=O)CNC(=O)[C@H](CCCCN)NC(=O)[C@H](CCCCN)NC(=O)[C@@H](N)Cc1c[nH]cn1)C(=O)N[C@@H](Cc1ccc(O)cc1)C(=O)N[C@@H](C)C(=O)N[C@@H](CC(=O)O)C(=O)N[C@@H](Cc1ccc(O)cc1)C(=O)O  IC50 (Ebola virus; pseudovirus infection; pseudotyped virus): 21.7 µM
O=C(O)CCCC1C2CCCN3CCCC(CN1C(=O)c1ccc(Cl)cc1)C23 (stereo not shown)  IC50 (Ebola virus; viral entry; EBOV GP pseudotyped HIV): > 200 µM
CC[C@H](C)[C@H](NC(=O)[C@@H](NC(=O)[C@H](CCC(N)=O)NC(=O)[C@@H](N)CO)C(C)C)C(=O)N[C@@H](CO)C(=O)N[C@@H](CC(N)=O)C(=O)N1CCC[C@H]1C(=O)N[C@@H](Cc1ccc(O)cc1)C(=O)N[C@@H](Cc1ccc(O)cc1)C(=O)N1CCC[C@H]1C(=O)N[C@@H](Cc1ccccc1)C(=O)N[C@@H](Cc1ccc(O)cc1)C(=O)N[C@@H](Cc1ccc(O)cc1)C(=O)N[C@@H](CO)C(=O)O  IC50 (Marburg virus; pseudovirus infection; pseudotyped virus): 69.4 µM
O=C1c2c(O)ccc(O)c2C(=O)c2c(NCCNCCO)ccc(NCCNCCO)c21  IC50 (SARS-CoV-2 NLuc reporter; viral replication; Calu-3; 16 h compound pretreatment): 0.016 µM
CC(C)CC(=O)OC1C=CC=CC(=O)OC2C(C)CC3C2(O)C(O)C2(CO)OC2C2C4OC5(c6ccccc6)OC(C(C)C23O5)C4(O)C(C)(O)CC2CCC1C2C (stereo not shown)  IC50 (SARS-CoV-2 Delta spike; cell fusion; HeLa-ACE2 cells): ~0.001 µM
O=C(O)c1ncn(CCO)c1C(=O)O  IC50 (Severe acute respiratory syndrome coronavirus; viral replication; Vero; 48 h): 28 µg/mL
COc1cc(-c2oc3cc(O)cc(O)c3c(=O)c2O[C@@H]2O[C@H](CO)[C@@H](O)[C@H](O)[C@H]2OC(=O)c2cc(O)c(O)c(O)c2)ccc1O  IC50 (influenza A virus; hemagglutination; A/chicken/FPV/Rostock/1934 (H7N1)): 188 ± 3.8 µM
O=C(O)CC1C2CCCN3CCCC(CN1S(=O)(=O)c1ccc(Cl)cc1)C23 (stereo not shown)  IC50 (Ebola virus; viral entry; EBOV GP pseudotyped HIV): > 200 µM
NC(=O)c1ncn(C2OC(CO)C(O)C2O)c1C(N)=O (stereo not shown)  IC50 (Severe acute respiratory syndrome coronavirus; viral replication; Vero; 48 h): 26 µg/mL
Cn1cnc(Cn2c(=O)[nH]/c(=N\c3cc4cn(C)nc4cc3Cl)n(Cc3cc(F)c(F)cc3F)c2=O)n1  IC50 (transmissible gastroenteritis virus; viral replication, qRT-PCR; ST; 48 h): 48.5 µM
CC(=O)OCCOCn1cnc(C#N)c1C#N  IC50 (Zaire ebolavirus; viral replication, inhibitor; Vero; 72 h): 52 µg/mL
NCCCC[C@H](N)C(=O)NCC(=O)N[C@@H](CC(=O)O)C(=O)N[C@@H](CC(=O)O)C(=O)N[C@@H](Cc1ccccc1)C(=O)N[C@@H](Cc1ccccc1)C(=O)N1CCC[C@H]1C(=O)N[C@@H](Cc1ccc(O)cc1)C(=O)N[C@@H](Cc1ccc(O)cc1)C(=O)N[C@@H](Cc1c[nH]cn1)C(=O)N[C@@H](CO)C(=O)O  IC50 (Ebola virus; pseudovirus infection; pseudotyped virus): 47.5 µM
CN1CCN(C(=O)N[C@@H](Cc2ccccc2)C(=O)N[C@H](/C=C/S(=O)(=O)c2ccccc2)CCc2ccccc2)CC1  IC50 (Middle East respiratory syndrome-related coronavirus; viral entry; Vero; pseudovirus): 0.0461 ± 0.00663 µM
COc1ccc(CN2CCN(c3nc(C)ccc3C(=O)OC(C)C)CC2)cc1Cl  IC50 (Mycobacterium tuberculosis; resazurin; rel knockout; 168 h, nutrient-starved): 32 µM
O=C(O)CC1C2CCCN3CCCC(CN1CCc1ccc(Cl)c(Cl)c1)C23 (stereo not shown)  IC50 (Ebola virus; viral entry; EBOV GP pseudotyped HIV): > 200 µM
CCCC1O[C@@H]2C[C@H]3[C@@H]4CCC5=CC(=O)C=C[C@]5(C)[C@H]4[C@@H](O)C[C@]3(C)[C@]2(C(=O)CO)O1 (stereo partly shown)  IC50 (Severe acute respiratory syndrome coronavirus 2; viral replication, inhibitor; VeroE6/TMPRSS2; 24 h): > 30 µM
O=C(O)CCCC1C2CCCN3CCCC(CN1S(=O)(=O)c1ccc(Cl)cc1)C23 (stereo not shown)  IC50 (Ebola virus; viral entry; EBOV GP pseudotyped HIV): 30.2 µM
COC(=O)c1ncn(C2OC(COC(C)=O)C(OC(C)=O)C2OC(C)=O)c1C(=O)OC (stereo not shown)  IC50 (Severe acute respiratory syndrome coronavirus; viral replication; Vero; 48 h): 40 µg/mL
COc1cc(-c2oc3cc(O[C@@H]4O[C@@H](C)[C@H](O)[C@@H](O)[C@H]4O)cc(O)c3c(=O)c2O[C@@H]2O[C@H](CO[C@@H]3O[C@@H](C)[C@H](O)[C@@H](O)[C@H]3O)[C@@H](O)[C@H](OC(C)=O)[C@H]2O)ccc1O  IC50 (influenza A virus; hemagglutination; A/Tern/South Africa/1/61 (H5N3)): 27.3 ± 0.63 µM
CC(C)(C)[Si](C)(C)OC[C@H]1O[C@@H](n2cc(F)c(=O)[nH]c2=O)[C@H](I)[C@@H](O[Si](C)(C)C(C)(C)C)[C@@H]1O[Si](C)(C)C(C)(C)C  IC50 (Japanese encephalitis virus; viral replication, inhibitor, ELISA; Vero): 3.21 µM
COC(=O)c1ncn(CCO)c1C(=O)OC  IC50 (Severe acute respiratory syndrome coronavirus; viral replication; Vero; 48 h): 28 µg/mL
COc1cc2c(cc1O)CCN[C@]21CS[C@@H]2c3c(OC(C)=O)c(C)c4c(c3[C@H](COC1=O)N1[C@@H]2[C@H]2c3c(cc(C)c(OC)c3O)C[C@@H]([C@@H]1C#N)N2C)OCO4  IC50 (SARS-CoV-2 BA.1; viral replication, RT-qPCR of viral RNA; Calu-3): 0.0101 µM
CCOP(=O)(CCOCn1cnc(C#N)c1C#N)OCC  IC50 (Mammarenavirus lassaense; viral replication, inhibitor; Vero; 48 h): 8 µg/mL
CCCCCCCCCCCCCCCC1O[C@@H]2C[C@H]3[C@@H]4CCC5=CC(=O)C=C[C@]5(C)[C@H]4[C@@H](O)C[C@]3(C)[C@]2(C(=O)CO)O1 (stereo partly shown)  IC50 (Severe acute respiratory syndrome coronavirus 2; viral replication; VeroE6/TMPRSS2): 19.3 µM

A few entries again:
O=c1ccn([C@@H]2O[C@H](CO)[C@@H](O)[C@H](O)[C@H]2I)c(=O)[nH]1  IC50 (Japanese encephalitis virus; viral replication, inhibitor, ELISA; Vero): > 20 µM
CC[C@@]1(O)C[C@H](O[C@H]2C[C@H](N(C)C)[C@H](O[C@H]3C[C@H](O)[C@H](O[C@H]4CCC(=O)[C@H](C)O4)[C@H](C)O3)[C@H](C)O2)c2c(cc3c(c2O)C(=O)c2c(O)cccc2C3=O)[C@H]1C(=O)OC  IC50 (SARS-CoV-2 NLuc reporter; viral replication; Calu-3; 16 h compound pretreatment): 0.173 µM
C[C@]12C=CC(=O)C=C1CC[C@@H]1[C@@H]2[C@@H](O)C[C@@]2(C)[C@H]1C[C@H]1OC(CCCCCCCCCN=[N+]=[N-])O[C@]12C(=O)CO (stereo partly shown)  IC50 (Severe acute respiratory syndrome coronavirus 2; viral replication; VeroE6/TMPRSS2): 6.6 µM
COC(=O)CCCC1C2CCCN3CCCC(CN1Cc1ccc(Cl)c(Cl)c1)C23 (stereo not shown)  IC50 (Ebola virus; viral entry; EBOV GP pseudotyped HIV): 5.29 µM
